Measured values from different studies.
A part holds a random share of what one study measured.

Sample 1
Target: Transcriptional repressor CTCF (CTCF, Homo sapiens, UniProt P49711, residues 1-727, full length assumed)
Technique: protein-binding microarray
Molecule type: double-stranded DNA, one strand shown
Matrix: in vitro
Tested at: not given
Notes: k-mer, scored over probes, only values ≥0.25
Reading: higher = stronger binding
Measurement: E-score
Residues (chain): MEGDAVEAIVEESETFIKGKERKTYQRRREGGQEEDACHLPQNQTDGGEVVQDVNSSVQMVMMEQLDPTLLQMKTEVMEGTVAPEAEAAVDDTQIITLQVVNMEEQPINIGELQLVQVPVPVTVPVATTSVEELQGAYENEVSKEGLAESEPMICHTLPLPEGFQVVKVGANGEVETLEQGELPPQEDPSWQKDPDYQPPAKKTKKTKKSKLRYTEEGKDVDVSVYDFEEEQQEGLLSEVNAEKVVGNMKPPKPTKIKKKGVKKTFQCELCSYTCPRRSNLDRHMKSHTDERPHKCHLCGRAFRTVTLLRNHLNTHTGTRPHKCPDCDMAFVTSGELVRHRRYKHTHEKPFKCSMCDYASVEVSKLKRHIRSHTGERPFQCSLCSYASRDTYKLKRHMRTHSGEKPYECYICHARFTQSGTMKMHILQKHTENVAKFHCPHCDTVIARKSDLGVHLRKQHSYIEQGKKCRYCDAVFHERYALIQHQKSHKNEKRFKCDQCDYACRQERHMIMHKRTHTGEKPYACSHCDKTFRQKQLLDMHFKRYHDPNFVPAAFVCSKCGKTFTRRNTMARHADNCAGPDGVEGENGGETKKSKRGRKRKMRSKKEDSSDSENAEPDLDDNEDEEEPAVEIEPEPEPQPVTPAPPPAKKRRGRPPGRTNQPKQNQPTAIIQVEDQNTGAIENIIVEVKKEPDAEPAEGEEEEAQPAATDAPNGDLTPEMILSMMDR
AATTATTC: 0.275
GTGTAATA: 0.295
AATTATGA: 0.296
CGTATTTC: 0.293
ATATATGG: 0.393
TCGGAAAA: 0.296

Sample 2
Target: Histone acetyltransferase KAT6A, winged helix 1, GST fusion (KAT6A, Homo sapiens, UniProt Q92794, residues 1-85)
Technique: protein binding microarray
Molecule type: double-stranded DNA, one strand shown
Matrix: in vitro
Tested at: not given
Notes: 8-mer, flanks averaged, mean of 2 arrays, mostly near background
Baseline: not given
Reading: higher = stronger binding
Measurement: E-score
Target sequence (chain): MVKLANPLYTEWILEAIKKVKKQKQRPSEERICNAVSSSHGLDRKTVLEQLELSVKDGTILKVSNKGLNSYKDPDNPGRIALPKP
GGGGATAA: -0.087
ACTGTACT: -0.129
GGTCCTAC: -0.0226
GCTTTACC: 0.13
TCTCTTAA: -0.178
CATCCTCA: -0.0261
AGTACGGG: 0.262

Sample 3
Target: Sal-like protein 4, full length isoform A (SALL4, Homo sapiens, UniProt Q9UJQ4, residues 1-1053)
Chain of UniProt Q9UJQ4 (whole entry, looked up): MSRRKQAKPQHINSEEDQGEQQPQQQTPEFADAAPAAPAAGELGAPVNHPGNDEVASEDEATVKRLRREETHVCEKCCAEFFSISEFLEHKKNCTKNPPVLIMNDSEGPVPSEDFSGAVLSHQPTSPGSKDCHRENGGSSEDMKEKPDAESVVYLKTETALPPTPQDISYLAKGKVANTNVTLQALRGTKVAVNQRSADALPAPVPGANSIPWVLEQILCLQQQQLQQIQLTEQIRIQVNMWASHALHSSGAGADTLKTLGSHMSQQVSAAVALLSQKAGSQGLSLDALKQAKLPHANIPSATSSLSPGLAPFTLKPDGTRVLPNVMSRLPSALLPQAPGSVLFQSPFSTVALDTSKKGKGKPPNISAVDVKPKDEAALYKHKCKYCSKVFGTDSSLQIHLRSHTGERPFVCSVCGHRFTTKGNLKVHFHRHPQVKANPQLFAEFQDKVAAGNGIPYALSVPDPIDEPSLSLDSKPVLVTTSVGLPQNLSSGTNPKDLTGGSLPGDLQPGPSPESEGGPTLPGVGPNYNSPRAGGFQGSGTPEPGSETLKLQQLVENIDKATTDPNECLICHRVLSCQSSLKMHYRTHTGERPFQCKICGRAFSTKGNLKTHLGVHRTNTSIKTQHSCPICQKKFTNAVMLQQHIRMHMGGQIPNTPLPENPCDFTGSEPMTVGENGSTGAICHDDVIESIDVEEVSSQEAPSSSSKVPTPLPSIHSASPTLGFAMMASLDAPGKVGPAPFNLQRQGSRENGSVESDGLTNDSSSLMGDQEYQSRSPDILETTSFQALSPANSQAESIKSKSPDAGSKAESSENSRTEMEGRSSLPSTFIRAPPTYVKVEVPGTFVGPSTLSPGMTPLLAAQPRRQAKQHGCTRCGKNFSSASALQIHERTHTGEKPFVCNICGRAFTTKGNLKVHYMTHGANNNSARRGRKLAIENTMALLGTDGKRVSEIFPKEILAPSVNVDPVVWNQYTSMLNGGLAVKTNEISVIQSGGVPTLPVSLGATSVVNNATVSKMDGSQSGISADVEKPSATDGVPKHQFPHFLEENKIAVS
Technique: universal PBM
Molecule type: double-stranded DNA, one strand shown
Matrix: in vitro
Tested at: 600 nM
Notes: 8-mer, flanks averaged, mean of replicates
Reading: higher = stronger binding
Measurement: E-score
CAGTTCCG: -0.215
GAACGACA: 0.00796
ACGTGGAG: -0.137
ATCTTTCC: 0.108
GACTTCGA: 0.0796
AATGCGGG: -0.0495

Single results of other studies
PhoQ, residues 284 288 289 292 302 303 SLANIV
fold induction (PhoP, residues 12 14 15 18 19 YHFSH (Escherichia coli, UniProt P23836); Sort-seq, item: YFP reporter; E. coli; PhoQ-PhoP variant library, together with: 10 µM Mg2+; baseline: high Mg2+ state, higher = stronger signaling): 12.8

Some of these lines once more (sample 1):
TCGGAAAA: 0.296
GTGTAATA: 0.295
AATTATTC: 0.275
